Experimental data collected from several papers.
Protocols differ between the studies behind these lines. ± gives the spread as reported.
Chain of UniProt Q05941 (whole entry, looked up): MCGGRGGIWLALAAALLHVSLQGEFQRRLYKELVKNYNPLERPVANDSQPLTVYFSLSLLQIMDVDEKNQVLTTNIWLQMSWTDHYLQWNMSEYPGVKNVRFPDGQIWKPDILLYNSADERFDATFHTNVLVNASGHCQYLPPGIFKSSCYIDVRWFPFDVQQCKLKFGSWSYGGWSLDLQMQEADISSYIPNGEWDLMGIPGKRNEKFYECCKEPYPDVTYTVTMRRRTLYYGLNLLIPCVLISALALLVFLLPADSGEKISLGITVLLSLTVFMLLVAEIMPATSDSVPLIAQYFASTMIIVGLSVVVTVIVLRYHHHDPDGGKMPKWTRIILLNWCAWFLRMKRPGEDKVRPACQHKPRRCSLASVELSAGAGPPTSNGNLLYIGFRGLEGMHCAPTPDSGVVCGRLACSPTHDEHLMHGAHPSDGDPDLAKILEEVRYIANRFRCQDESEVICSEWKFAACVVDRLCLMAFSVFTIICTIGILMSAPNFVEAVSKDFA
Chain of UniProt P00519 (whole entry, unmodified, looked up): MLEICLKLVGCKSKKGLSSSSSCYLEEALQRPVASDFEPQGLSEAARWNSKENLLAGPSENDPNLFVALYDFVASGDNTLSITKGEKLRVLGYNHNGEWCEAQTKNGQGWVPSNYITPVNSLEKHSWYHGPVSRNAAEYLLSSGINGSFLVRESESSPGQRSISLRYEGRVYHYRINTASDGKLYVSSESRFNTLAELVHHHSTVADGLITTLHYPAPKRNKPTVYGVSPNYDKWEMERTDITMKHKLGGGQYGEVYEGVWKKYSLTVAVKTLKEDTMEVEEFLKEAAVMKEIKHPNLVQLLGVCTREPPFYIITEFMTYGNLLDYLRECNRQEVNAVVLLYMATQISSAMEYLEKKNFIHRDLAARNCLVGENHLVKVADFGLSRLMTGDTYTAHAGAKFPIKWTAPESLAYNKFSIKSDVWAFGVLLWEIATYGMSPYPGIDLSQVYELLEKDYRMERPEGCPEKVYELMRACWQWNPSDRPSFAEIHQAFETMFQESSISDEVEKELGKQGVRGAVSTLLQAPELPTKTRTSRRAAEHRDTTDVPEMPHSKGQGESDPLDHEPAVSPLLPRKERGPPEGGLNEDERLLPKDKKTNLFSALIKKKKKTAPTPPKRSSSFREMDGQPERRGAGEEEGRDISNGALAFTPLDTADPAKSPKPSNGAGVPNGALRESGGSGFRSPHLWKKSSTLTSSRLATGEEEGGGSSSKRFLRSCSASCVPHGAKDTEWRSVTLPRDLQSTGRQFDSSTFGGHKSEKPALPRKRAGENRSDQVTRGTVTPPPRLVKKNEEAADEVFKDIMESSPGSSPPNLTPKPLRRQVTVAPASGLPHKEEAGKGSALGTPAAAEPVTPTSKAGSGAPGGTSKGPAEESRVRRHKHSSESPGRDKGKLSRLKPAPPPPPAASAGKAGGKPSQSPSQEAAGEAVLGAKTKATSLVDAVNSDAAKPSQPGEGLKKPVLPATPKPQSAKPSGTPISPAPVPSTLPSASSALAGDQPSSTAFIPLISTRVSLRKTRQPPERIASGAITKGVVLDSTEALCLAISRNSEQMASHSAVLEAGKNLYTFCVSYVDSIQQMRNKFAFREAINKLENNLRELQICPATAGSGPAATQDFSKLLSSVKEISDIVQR
Chain of UniProt P06276 (whole entry, looked up): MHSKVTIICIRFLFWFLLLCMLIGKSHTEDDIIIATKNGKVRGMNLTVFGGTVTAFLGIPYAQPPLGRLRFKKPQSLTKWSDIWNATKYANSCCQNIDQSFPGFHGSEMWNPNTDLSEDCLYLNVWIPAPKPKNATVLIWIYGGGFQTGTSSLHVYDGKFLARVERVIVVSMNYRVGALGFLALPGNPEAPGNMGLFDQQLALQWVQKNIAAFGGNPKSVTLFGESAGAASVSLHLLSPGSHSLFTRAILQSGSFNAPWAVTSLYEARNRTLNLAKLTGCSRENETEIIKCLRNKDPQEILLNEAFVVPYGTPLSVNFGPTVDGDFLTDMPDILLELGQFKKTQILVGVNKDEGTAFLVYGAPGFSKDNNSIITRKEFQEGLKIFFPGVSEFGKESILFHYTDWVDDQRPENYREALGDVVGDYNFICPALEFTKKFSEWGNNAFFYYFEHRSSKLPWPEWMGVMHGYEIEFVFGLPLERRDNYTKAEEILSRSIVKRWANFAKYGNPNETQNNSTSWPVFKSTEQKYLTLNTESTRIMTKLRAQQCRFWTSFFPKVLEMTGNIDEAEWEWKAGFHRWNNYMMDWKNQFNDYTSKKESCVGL
Chain of UniProt P63138 (whole entry, looked up): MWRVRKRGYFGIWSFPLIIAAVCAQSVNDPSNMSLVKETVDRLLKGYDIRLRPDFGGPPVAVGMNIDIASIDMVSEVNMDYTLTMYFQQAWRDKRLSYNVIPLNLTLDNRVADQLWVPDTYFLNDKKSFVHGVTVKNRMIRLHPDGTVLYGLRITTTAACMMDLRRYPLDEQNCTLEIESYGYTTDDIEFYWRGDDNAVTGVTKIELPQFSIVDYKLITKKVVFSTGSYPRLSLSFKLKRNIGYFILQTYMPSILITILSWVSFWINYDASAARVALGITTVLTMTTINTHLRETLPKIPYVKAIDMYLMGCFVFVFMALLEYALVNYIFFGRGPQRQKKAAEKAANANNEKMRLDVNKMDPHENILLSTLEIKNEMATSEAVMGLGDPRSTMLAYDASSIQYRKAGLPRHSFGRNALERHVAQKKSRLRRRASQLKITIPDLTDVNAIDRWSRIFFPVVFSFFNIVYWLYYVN
Chain of UniProt O95372 (whole entry, looked up): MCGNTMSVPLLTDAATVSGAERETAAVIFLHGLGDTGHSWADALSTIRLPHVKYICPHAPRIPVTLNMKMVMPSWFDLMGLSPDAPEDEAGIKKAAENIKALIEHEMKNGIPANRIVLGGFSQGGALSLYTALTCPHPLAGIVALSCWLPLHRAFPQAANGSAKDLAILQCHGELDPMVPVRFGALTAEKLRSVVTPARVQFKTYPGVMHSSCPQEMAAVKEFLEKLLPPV
Chain of UniProt P51813 (whole entry, looked up): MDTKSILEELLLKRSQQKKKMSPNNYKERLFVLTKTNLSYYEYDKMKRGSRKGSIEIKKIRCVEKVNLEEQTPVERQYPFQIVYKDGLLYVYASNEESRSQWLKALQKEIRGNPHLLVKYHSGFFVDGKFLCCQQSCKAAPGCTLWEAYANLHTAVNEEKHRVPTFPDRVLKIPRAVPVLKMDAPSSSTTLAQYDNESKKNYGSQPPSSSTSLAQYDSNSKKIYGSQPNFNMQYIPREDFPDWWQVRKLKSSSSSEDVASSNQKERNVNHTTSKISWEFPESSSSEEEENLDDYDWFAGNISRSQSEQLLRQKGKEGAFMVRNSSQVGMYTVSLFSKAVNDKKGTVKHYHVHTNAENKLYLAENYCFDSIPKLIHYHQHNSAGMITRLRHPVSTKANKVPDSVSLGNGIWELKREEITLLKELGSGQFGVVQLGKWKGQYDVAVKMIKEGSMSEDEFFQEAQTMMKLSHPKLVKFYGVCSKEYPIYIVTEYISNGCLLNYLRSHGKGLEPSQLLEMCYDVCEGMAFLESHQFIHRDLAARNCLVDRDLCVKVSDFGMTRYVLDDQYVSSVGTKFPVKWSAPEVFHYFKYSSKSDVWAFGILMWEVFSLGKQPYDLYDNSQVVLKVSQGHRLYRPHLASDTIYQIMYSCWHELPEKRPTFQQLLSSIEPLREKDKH
Chain of UniProt P62813 (whole entry, looked up): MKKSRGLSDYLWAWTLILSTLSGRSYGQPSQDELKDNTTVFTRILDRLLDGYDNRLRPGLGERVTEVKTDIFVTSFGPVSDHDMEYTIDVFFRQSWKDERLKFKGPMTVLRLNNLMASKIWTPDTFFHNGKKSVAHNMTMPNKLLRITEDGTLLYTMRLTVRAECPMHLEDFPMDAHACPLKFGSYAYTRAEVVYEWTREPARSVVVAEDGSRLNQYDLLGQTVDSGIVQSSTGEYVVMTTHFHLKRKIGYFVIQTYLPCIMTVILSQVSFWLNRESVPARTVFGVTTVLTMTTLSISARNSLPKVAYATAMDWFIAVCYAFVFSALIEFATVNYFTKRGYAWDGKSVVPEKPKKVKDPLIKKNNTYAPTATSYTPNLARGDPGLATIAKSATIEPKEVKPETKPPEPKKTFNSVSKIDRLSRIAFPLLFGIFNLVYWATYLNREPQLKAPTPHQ
Chain of UniProt P00747 (whole entry, looked up): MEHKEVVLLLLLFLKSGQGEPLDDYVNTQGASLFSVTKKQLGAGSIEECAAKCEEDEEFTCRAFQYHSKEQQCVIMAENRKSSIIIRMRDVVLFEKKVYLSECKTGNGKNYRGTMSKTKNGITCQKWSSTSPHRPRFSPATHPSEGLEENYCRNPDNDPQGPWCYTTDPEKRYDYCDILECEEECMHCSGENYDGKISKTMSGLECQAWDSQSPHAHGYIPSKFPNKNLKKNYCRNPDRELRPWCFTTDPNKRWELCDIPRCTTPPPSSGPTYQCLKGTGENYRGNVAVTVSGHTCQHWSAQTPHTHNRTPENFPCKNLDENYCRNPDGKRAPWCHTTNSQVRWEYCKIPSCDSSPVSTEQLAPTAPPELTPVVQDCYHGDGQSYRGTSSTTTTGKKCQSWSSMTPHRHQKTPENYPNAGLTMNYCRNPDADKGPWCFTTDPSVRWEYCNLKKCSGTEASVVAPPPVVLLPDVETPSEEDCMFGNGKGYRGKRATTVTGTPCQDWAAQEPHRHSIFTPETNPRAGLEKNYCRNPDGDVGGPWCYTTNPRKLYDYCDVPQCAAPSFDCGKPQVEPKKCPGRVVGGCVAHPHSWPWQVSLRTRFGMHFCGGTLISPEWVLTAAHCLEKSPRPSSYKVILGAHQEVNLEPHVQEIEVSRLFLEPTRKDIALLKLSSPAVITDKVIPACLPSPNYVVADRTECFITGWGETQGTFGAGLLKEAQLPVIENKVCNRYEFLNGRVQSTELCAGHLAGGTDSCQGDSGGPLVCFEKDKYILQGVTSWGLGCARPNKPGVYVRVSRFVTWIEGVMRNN

Under “fold change of KD”, `CC(=O)c1cnc2ccc(-c3cc(Cl)c(O)c(Cl)c3)nc2c1N[C@H]1CC[C@H](CN(C)C)CC1` is recorded as > 100 (Receptor-like protein kinase ANXUR1 (ANX1, Arabidopsis thaliana, UniProt Q9SR05); binding, SPR; concentration not given; reference: FER).
For `Nc1ncc(-c2nc(N3CCOCC3)nc(N3CCOCC3)n2)c(C(F)F)n1`, the remaining binding was 86% (Tyrosine-protein kinase ABL1, phosphorylated (ABL1, Homo sapiens, UniProt P00519, F317L); KINOMEscan; 10 µM).
`O=C(c1ccc(Cl)cc1)N1CCN2C(=O)N(OC(=O)N3CCOc4ccccc43)C(=O)C2C1` (stereo not drawn): “mean protein ratio” 1.06 (Acyl-protein thioesterase 2 (Homo sapiens, UniProt O95372); MS-based ABPP; SW-620 conditioned medium; 10 µM, 1 h, 37 °C; reference: compound over DMSO, lower = more inhibition).
For `O=C1NC(=O)[C@](CNC(=O)c2cnn(-c3ccccc3)n2)(C2CC2)N1`, activity read “inactive” (Plasminogen (PLG, Homo sapiens, UniProt P00747); inhibitor; concentration not given).
`Cc1cccc(C)c1OCC(=O)N[C@@H](Cc1ccccc1)[C@H](O)C(=O)N1CSC(C)(C)[C@H]1C(=O)N[C@H]1c2ccccc2C[C@H]1O` — result for “binding free energy”: -13.9 kcal/mol (Gag-Pol polyprotein, protease (gag-pol, Human immunodeficiency virus type 1 group M subtype B, UniProt P04585); GdnHCl denaturation, Trp fluorescence; HIV-1; 2.5 µM, pH 5.0).
`NP(N)(=O)NC(=O)c1ccc(F)cc1` gave an efficacy of -106 ± 0.34% (Cholinesterase (BCHE, Homo sapiens, UniProt P06276); concentration not given, Triton).
With `O=C(Nc1cccnn1)N1CCC(=Cc2cccc(Oc3ccc(C(F)(F)F)cn3)c2)CC1` the inhibition was 46% (GABAA receptor chloride channel, rat; binding; 10 µM, added: [3H]TBOB).
`[2H]c1c([2H])c([C@]2([2H])CCCN2C(=O)C(C)(C)Oc2ccc3cn[nH]c3c2)c([2H])c([2H])c1C([2H])([2H])[2H]` has a remaining binding of 74% (Tyrosine-protein kinase ABL1, phosphorylated (ABL1, Homo sapiens, UniProt P00519); KINOMEscan; 1 µM; reference: DMSO control).
With `CCCCCCCC[C@H](NC(C)=O)C(=O)N[C@@H](CO)C(=O)N[C@@H](CC(C)C)C(=O)N[C@@H](CO)C(=O)N(C)[C@@H](CC(C)C)C(=O)N[C@@H](CC(=O)O)C(=O)N[C@@H](CCCCCCCC)C(=O)N[C@@H](CC(=O)O)C(N)=O` the melting temperature was 55.4 ± 1.6 °C (Glucagon receptor (GCGR, Homo sapiens, UniProt P47871); CPM thermal shift; DDM/CHS detergent).
For `CCN1CCN(C(=O)N[C@@H](C(=O)N[C@@H]2C(=O)N3[C@@H]2SC(C)(C)[C@@H]3C(=O)O)c2ccccc2)C(=O)C1=O`, the kinact/KI was 1800 ± 190 M⁻¹ s⁻¹ (Penicillin-binding protein 1A (pbpA, Streptococcus pneumoniae, UniProt Q8DR59); inhibitor).
`COc1cc(N)c(Cl)cc1C(=O)NC1CN2CCC1CC2` (stereo not drawn) — result for “log2 fold change”: 0.764 (Adhesion G-protein coupled receptor D1 (ADGRD1, Homo sapiens, UniProt Q6QNK2); β-arrestin recruitment, TANGO luminescence, refers to: GPR133; concentration not given; reference: basal luminescence).
`OC(c1cc(C(F)(F)F)nc2c(C(F)(F)F)cccc12)C1CCCCN1` (stereo not drawn) has an IC50 of 0.062 µM (Plasmodium falciparum; D10).
`C[n+]1cn([C@@H]2O[C@H](COP(=O)([O-])OP(=O)(O)OP(=O)(O)OC[C@H]3O[C@@H](n4cnc5c(=O)[nH]c(N)nc54)[C@H](O)[C@@H]3O)[C@@H](O)[C@H]2O)c2nc(N)[nH]c(=O)c21`: “ΔH second site” -13.4 kcal/mol (m7GpppX diphosphatase (DCS1, Saccharomyces cerevisiae, UniProt Q06151, H268N); binding, ITC).
`CCCCC/C=C\C/C=C\C/C=C\C/C=C\CCCC(=O)NCCO` has a Hill coefficient of 3.34 ± 0.31 (Trpv1 (Mus musculus, UniProt Q704Y3, N552Q); ion current, agonist, whole-cell patch clamp; N552Q).
For `O=C(O)C1=CC(O)CC1` (stereo not drawn), “tryptophan fluorescence quenching” read “no effect” (Calcium/calmodulin-dependent protein kinase type II subunit alpha, hub domain (CAMK2A, Homo sapiens, UniProt Q9UQM7); intrinsic Trp fluorescence; concentration not given, wild-type hub domain).
For `CN1CCN(c2cc(-c3ccncc3)c(-c3ccc4ccccc4c3)nn2)CC1`, the inhibition was 11.6% (ADORA2B (Homo sapiens, UniProt P29275); antagonist, FLIPR; 10 µM).
`CN(C)c1ccc(/N=N/c2ccc(Cl)cc2)cc1` has an IC50 of > 100 µM (Gag-Pol polyprotein, integrase (gag-pol, Human immunodeficiency virus 1, UniProt P12497); 3'-processing activity, inhibitor; wild-type integrase).
With `CC(C)[N+](C)(CCOC(=O)C1c2ccccc2Oc2ccccc21)C(C)C` the efficacy was -71 ± 7.05% (Cholinesterase (BCHE, Homo sapiens, UniProt P06276); concentration not given, Triton).
`CN(C(=O)n1cnc(-c2ccc[n+]([O-])c2)c1)C1CCCCC1` has an inhibition of 17.8% (Abhydrolase domain-containing protein 11 (Rattus norvegicus, UniProt D3ZXK4); probe labelling, inhibitor, competitive ABPP with azido-FP probe, refers to: Abhd11; rat brain soluble fraction; 10 µM).
`NCCc1c[nH]c2ccc(O)cc12` gave a Km of < 10 µM (Serotonin N-acetyltransferase (Aanat, Mus musculus, UniProt O88816); enzyme activity, colorimetric DTNB; added: acetyl-CoA).
`O=C(Nc1cnccc1Cl)N1CCN(Cc2ccc3c(c2)OC(F)(F)O3)CC1` gave an inhibition of -1% (glycine transporter, rat; binding; 50 µM, added: [3H]glycine).
`CN(C)CCC(c1ccccc1)c1ccccn1` (stereo not drawn) has an IC50 of 5.01 µM (Plasmodium falciparum; 7G8).
The log D of `Cc1ccccc1NC(=O)Nc1ccc(CC(=O)N[C@@H](CCCCNC(=O)/C=C/c2cccnc2)C(=O)N[C@@H](CCCC(=O)O)C(=O)NC2(C(=O)NCCOCCOCCOCCOCC(=O)N[C@@H](CCCCNC(=S)Nc3ccc(C[C@H]4CN(CC(=O)O)CCN(CC(=O)O)CCN4CC(=O)O)cc3)C(N)=O)CCCCC2)cc1` [gallium-68 labelled] is reported as -2.18 ± 0.03 (shake flask; octanol/PBS; pH 7.4).
For `COC1=C(OC)C(=O)C(CC=C(C)C)=C(C)C1=O`, “P+QA− recombination rate” read 10 s⁻¹ (Reaction center protein M chain, QA site (pufM, Cereibacter sphaeroides, UniProt P0C0Y9); charge recombination; Rhodobacter sphaeroides, LDAO detergent solution; pH 7.8, 298 K, quinone reconstituted in QA site).
With `NCc1cc(=O)[nH]o1` the maximal response was 109% (GABA-A receptor; alpha-1/beta-2/gamma-2 (Rattus norvegicus, UniProt P18508+P62813+P63138); membrane potential, agonist, QP-DHM fluorescence; HEK293 expressing GABAA; reference: GABA).
`CCN(C)C(=O)Oc1ccc(CCC(=O)N2CCN(Cc3ccccc3)CC2)cc1` has a selectivity ratio of 0.3 (Cholinesterase (BCHE, Equus caballus, UniProt P81908); Ellman; equine serum BuChE; reference: AChE IC50 over BuChE IC50).
For `NNC(=O)c1ccncc1`, the IC50 was > 1000 µM (Gag-Pol polyprotein, integrase with LEDGF/p75 (gag-pol, Human immunodeficiency virus 1, UniProt P12497); LEDGF/p75-integrase interaction, inhibitor, AlphaScreen).
The remaining binding of `C[C@H]1CN(c2n[nH]c3nc(N[C@H]4CC[C@H](NS(=O)(=O)CCC(F)(F)F)CC4)ncc23)CCO1` is reported as 1.01 (Structural maintenance of chromosomes protein 2 (Homo sapiens, UniProt O95347); Kinobeads competition, refers to: SMC2; 0.16 µM, unit not given; reference: vehicle).
`COc1cc2c3cc1Oc1cc(ccc1O)C[C@@H]1c4c(cc(OC)c(O)c4Oc4ccc(cc4)C[C@@H]3N(C)CC2)CC[N+]1(C)C` — result for “free receptor reduction”: 50% (Chrnd/Chrna1/Chrne (Mus musculus, UniProt P02716+P04756+P20782); mouse diaphragm; 0.04 µM, AChE intact).
With `CC1(C)C(C=C(Cl)Cl)C1C(=O)OCc1cccc(Oc2ccccc2)c1` (stereo not drawn) the remaining activity was 77% (uncharacterized protein (Anopheles coluzzii, UniProt A0A6E8VQK1); enzyme activity, inhibitor; Sf9 cell homogenate; 116.3 µM, 0.1667 h, added: α-naphthyl acetate substrate; reference: no inhibitor).
With `COc1ccc(N2C(=O)N(c3c(C)cccc3Cl)Cc3cnc(Nc4ccc(C5CCN(C)CC5)cc4OC)nc32)nc1` the inhibition was 94% (BMX (Homo sapiens, UniProt P51813); kinase activity; 0.5 µM).
`COc1ccc2[nH]c3c(c2c1)CCN(C)CC3.Cl`: “recovery time constant” 8.6 s (Chrna7 (Rattus norvegicus, UniProt Q05941); ion current, inhibitor, two-electrode voltage clamp; Xenopus laevis oocytes; 10 µM, rat receptor, added: acetylcholine 100 µM).
For `CCCCCCCCCC(=O)N[C@@H](CCCN=C(N)N)C(=O)N[C@H](C(=O)N[C@@H](CCCCN)C(=O)N[C@@H](CCCN=C(N)N)C(=O)CCl)C(C)C`, the Hill slope was -1.19 (Furin (FURIN, Homo sapiens, UniProt P09958); enzyme activity, inhibitor).
